# Results from different studies.
# Protocols differ between the studies behind these lines. Values joined by “and” are separate records of one study, mostly repeats; a detail may differ. ± marks the error that the study gave.
Compound,cell line,test,conditions,how to read,measurement,result
O=C(NCc1ccc(OC(F)(F)F)cc1)[C@H]1CCCN(c2ncnc3[nH]c(-c4cccnc4)cc23)C1,NCI-H2228,"cell growth or viability, MTT","1 µg/mL, 72 h",,inhibition,72%
CCC(=O)N1CCN(c2ccc(NC(=O)c3ccc([N+](=O)[O-])o3)cc2Cl)CC1,LDR,"silenced CMV-GFP reporter derepression, qHTS",,,Emax,50%
COc1ccccc1-c1ccncc1C(=O)Nc1ccc(OCc2ccc(Cl)cc2)nn1,DLD-1 BRCA2-/-,,"10 µM, mean of 3 replicates",relative to: untreated,colony survival,99.3%
Cc1cc(NC2CCN(C)CC2)ccc1-c1cc2c(N3CCC[C@H](C(=O)Nc4ccc(C(F)(F)F)cc4)C3)ncnc2[nH]1,NCI-H2228,"cell growth or viability, MTT","0.008 µg/mL, 72 h",,inhibition,52.2%
Cc1ccc(C(C)C)c(OCc2ccc(C(=O)N/N=C/c3cccc(O)c3O)cc2)c1,LDR,"silenced CMV-GFP reporter derepression, qHTS",,,efficacy,35%
COC(=O)c1cc(NC2=NC(=O)C(=Cc3ccc(N(C)C)cc3)S2)ccc1OC(C)=O,MCF7,item: UBE2W mRNA,"0.81 µM (IC50), 24 h",relative to: DMSO,fold change,0.224
Cc1cc(N2CCCCC2)ccc1-c1cc2c(N3CCC[C@H](C(=O)NCc4ccc(OC(F)(F)F)cc4)C3)ncnc2[nH]1,NCI-H2228,"cell growth or viability, MTT","1 µg/mL, 72 h",,inhibition,76.9%
CCCCCCCCCCCC(=O)N[C@H](CO)C[C@@H](O)c1ccccc1,HeLa,"CERT activity, HPLC-MS/MS lipidomics, item: sphingomyelin 24","1 µM, 24 h, not cell-number normalised",,sphingomyelin level,88300 pmol/sample and 80000 pmol/sample and 79500 pmol/sample
Cc1cc(NC2CCN(C)CC2)ccc1-c1cc2c(N3CCC[C@H](C(=O)N4CCCCC4)C3)ncnc2[nH]1,NCI-H2228,"cell growth or viability, MTT","0.008 µg/mL, 72 h",,inhibition,3.4%
CN1CCCNC(=O)c2cccc(c2)C(=O)NCCCN(C)CCCNc2cccc3c2C(=O)c2cccc(c2C3=O)NCCC1,SAS,"RNA-Seq, item: NUMA1 mRNA","1 µM, 6 h",relative to: untreated cells,log2 fold change,-0.607
C1=[N+]2CCCC[N+]3=Cc4ccc5[n]4[Au-]23[n]2c1ccc2-c1nc2ccccc2nc1-5.F[P-](F)(F)(F)(F)F,SNB-75,NCI60 five-dose screen,,,TGI,4.41 -log M
COc1cccc(OC)c1-c1cc(C(=O)NC2(C(=O)O)C3CC4CC(C3)CC2C4)nn1-c1ccc(C(=O)N(C)CCCN(C)CCCN(C)C(=O)[C@H](CCCCNC(=O)[C@H](CC(C)C)NC(=O)C2OC2C(=O)O)NC(=O)CN2CCN(CC(=O)[O-])CCN(CC(=O)[O-])CCN(CC(=O)[O-])CC2)cc1C(C)C.[177Lu+3] (mixture of isomers),HT-29,,"concentration not given, 120 min",relative to: added activity,internalized fraction,4.23 ± 0.26%
CCN(CC)CC(=O)Nc1cccc(-n2cc(-c3ccc4ccc(-c5cn(-c6cccc(NC(=O)CN(CC)CC)c6)nn5)cc4c3)nn2)c1,RCC4,"PCR angiogenesis array, item: THBS2","5 x IC50, 6 h, normoxia",relative to: untreated,fold regulation,-1.35 fold
CCN(C(=O)c1cc(F)ccc1Oc1nncnc1N1CCC2(C1)CN([C@H](CCCN(C)CCOC)C(C)C)C2)C(C)C,NCI-H82,cell growth or viability,7 days,,GI50,> 10000 nM
CNS(=O)(=O)Nc1nccc(Cc2c(C)c3ccc(Oc4ncccc4F)cc3oc2=O)c1F,CAPAN-1,cell viability,7 days,,IC50,360 nM
Cc1ncsc1-c1ccc(C(C)NC(=O)C2CC(O)CN2C(=O)C(NC(=O)CCCCCCCCCCN2CCCC(Nc3ncc(Cl)c(Nc4ccccc4S(=O)(=O)C(C)C)n3)C2)C(C)(C)C)cc1 (stereo not drawn),22Rv1,"RNA-seq, item: RBBP8NL mRNA",concentration not given,relative to: DMSO,log2 fold change,-1.8
COC(=O)[C@H](C)NC(=O)[C@H](C)NC(=O)c1csc(-c2cccnc2)n1,PC3-TxR,cell growth or viability,,,EC50,> 30 µM
O=C(C[Se]C(=O)c1ccccc1Nc1cccc(C(F)(F)F)c1)Nc1cccc(C(F)(F)F)c1,NCI60 NSCLC subpanel,NCI60 five-dose screen,,,GI50,1710 nM

# Repeated from above:
Compound,cell line,test,conditions,how to read,measurement,result
Cc1ccc(C(C)C)c(OCc2ccc(C(=O)N/N=C/c3cccc(O)c3O)cc2)c1,LDR,"silenced CMV-GFP reporter derepression, qHTS",,,efficacy,35%
